Assay results collected from several papers.
Compare with care: the assays were run in different laboratories. Values joined by “and” are separate records of one study, mostly repeats; a detail may differ. Numbers after ± are the reported error.
UniProt Q01959, sequence (whole entry, unmodified, looked up): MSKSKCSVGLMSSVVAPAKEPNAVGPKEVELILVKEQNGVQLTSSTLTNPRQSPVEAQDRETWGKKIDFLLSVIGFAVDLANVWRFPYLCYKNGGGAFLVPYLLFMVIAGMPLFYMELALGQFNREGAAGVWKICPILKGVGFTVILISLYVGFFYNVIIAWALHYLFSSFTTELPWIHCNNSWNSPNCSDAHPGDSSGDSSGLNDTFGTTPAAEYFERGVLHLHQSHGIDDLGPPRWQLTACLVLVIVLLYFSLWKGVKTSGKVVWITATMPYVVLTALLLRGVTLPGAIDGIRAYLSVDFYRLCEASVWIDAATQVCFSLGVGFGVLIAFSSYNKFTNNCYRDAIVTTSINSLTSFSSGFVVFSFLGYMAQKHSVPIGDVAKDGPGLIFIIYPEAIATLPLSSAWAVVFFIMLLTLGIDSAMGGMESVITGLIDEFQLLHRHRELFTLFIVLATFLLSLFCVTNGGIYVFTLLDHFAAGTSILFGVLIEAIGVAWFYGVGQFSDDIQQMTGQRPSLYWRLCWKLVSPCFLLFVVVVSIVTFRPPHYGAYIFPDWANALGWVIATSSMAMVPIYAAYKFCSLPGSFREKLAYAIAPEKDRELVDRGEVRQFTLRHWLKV
UniProt P08172, sequence (whole entry, looked up): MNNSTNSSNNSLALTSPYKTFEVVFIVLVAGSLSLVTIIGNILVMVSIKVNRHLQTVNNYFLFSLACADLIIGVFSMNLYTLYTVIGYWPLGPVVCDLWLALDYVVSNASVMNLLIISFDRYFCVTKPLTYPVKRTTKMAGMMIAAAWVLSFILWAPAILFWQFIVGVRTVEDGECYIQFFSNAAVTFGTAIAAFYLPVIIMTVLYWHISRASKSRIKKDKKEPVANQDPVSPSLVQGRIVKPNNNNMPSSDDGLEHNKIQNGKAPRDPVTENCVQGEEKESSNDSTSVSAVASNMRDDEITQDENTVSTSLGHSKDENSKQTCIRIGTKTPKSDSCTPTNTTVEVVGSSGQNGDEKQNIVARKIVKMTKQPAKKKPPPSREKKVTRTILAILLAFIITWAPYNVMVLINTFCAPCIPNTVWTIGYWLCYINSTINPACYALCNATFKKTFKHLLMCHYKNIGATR
UniProt Q9Q6P4, sequence (whole entry, looked up): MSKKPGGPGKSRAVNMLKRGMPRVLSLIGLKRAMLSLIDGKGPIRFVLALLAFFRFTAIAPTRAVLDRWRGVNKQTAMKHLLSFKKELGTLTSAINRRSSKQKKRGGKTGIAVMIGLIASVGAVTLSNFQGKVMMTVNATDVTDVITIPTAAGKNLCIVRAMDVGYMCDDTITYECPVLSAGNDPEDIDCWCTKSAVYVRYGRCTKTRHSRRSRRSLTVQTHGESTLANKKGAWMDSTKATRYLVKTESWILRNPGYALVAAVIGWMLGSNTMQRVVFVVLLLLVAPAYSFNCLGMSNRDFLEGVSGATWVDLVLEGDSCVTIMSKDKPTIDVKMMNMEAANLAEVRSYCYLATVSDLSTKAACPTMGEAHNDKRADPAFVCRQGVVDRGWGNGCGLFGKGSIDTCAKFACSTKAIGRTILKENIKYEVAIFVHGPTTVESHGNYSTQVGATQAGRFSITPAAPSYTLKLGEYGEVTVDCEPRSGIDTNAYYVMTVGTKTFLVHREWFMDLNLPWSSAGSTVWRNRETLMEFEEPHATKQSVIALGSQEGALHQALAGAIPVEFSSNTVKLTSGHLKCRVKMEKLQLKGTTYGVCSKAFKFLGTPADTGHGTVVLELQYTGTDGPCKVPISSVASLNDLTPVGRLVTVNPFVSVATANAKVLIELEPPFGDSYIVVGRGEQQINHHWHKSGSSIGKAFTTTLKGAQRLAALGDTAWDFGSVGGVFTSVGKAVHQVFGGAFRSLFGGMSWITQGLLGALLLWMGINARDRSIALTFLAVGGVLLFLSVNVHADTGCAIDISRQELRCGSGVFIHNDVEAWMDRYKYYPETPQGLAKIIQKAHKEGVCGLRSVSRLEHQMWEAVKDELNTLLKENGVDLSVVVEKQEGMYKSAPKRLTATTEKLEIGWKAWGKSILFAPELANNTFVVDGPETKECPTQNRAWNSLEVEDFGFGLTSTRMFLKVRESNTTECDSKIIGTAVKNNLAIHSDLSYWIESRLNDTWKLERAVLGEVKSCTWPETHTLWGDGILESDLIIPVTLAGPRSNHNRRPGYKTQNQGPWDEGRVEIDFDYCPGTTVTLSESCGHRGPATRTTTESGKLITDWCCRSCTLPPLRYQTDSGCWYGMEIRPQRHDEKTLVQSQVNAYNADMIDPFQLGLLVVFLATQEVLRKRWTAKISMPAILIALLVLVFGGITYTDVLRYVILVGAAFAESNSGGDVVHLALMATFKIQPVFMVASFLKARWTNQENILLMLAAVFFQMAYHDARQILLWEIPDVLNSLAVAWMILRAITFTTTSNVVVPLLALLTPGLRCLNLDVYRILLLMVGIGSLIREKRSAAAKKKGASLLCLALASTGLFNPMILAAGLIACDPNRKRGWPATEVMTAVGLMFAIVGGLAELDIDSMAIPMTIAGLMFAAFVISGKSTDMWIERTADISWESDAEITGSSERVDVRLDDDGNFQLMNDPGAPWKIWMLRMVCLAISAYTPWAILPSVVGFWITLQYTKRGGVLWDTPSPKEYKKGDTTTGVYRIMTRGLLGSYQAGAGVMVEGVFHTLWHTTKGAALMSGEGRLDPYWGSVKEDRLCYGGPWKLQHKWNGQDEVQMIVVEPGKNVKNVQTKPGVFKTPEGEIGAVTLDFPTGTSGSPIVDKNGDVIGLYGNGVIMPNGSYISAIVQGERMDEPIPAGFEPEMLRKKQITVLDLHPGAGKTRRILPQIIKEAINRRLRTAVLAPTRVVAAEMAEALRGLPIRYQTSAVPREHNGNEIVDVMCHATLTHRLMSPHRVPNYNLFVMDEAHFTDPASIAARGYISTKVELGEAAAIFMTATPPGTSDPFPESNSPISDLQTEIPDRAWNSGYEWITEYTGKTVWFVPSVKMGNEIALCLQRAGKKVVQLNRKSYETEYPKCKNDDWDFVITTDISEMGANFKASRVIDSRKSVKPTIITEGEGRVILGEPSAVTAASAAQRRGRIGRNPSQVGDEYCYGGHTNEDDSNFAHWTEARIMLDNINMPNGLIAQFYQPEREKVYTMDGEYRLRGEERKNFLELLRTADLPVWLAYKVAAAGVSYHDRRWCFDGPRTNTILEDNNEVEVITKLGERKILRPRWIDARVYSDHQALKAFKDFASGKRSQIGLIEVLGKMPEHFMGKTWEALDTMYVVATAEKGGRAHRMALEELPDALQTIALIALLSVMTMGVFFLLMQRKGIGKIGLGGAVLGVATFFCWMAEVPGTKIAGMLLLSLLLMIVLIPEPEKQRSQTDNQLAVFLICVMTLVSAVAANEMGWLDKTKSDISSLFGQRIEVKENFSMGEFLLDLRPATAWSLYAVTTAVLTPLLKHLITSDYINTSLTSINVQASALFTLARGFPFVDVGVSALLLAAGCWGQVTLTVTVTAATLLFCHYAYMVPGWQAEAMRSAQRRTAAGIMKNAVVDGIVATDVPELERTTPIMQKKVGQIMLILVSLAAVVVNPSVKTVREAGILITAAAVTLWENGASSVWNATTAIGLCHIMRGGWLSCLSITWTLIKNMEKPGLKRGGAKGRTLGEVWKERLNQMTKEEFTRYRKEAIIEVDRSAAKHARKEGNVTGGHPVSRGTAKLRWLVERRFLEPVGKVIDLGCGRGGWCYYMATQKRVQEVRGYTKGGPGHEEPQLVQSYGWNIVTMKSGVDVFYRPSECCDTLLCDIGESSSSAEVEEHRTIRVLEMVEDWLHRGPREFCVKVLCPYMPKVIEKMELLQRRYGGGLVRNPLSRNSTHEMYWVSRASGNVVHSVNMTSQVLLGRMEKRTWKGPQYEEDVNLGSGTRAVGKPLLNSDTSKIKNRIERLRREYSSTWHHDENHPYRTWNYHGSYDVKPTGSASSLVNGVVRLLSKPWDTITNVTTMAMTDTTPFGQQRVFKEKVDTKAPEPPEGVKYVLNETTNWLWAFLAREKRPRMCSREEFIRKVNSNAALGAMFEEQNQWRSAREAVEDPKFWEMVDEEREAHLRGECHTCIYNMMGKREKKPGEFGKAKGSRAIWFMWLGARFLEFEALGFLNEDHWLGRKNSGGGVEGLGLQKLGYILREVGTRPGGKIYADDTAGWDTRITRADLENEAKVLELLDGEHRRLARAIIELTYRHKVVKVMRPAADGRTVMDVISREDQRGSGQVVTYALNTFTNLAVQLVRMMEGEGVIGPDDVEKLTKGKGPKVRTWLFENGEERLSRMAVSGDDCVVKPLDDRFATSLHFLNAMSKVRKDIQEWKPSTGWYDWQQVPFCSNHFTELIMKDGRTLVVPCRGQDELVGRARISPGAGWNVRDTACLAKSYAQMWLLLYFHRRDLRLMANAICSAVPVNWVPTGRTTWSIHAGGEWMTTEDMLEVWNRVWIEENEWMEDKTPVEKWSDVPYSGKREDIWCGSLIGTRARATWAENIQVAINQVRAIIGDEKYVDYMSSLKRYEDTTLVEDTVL
UniProt P28335, sequence (whole entry, looked up): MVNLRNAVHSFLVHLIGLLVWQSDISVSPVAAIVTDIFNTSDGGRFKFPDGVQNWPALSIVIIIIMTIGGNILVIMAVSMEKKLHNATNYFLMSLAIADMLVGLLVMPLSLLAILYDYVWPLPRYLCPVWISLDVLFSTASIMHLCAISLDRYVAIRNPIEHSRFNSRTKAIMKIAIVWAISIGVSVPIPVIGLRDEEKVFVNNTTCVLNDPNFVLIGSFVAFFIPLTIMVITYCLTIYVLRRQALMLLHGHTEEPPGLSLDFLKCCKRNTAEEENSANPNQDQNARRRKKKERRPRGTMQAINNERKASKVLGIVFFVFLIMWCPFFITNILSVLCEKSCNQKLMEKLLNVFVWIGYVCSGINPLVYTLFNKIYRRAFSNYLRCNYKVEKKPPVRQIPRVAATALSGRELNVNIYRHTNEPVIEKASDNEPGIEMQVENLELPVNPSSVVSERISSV

SMILES	target	assay	test system	conditions	scale	endpoint	value
CN1C(=O)CN=C(c2ccccc2)c2cc(Cl)ccc21	GABA-A central benzodiazepine site (rat)	radioligand binding		concentration not given		inhibition	100%
C=CCN1CC[C@]23c4c5ccc(O)c4O[C@H]2C(=O)CC[C@]3(O)[C@H]1C5	Gamma-aminobutyric acid receptor subunit alpha-1/gamma-2 (Homo sapiens, UniProt P14867+P18507)			concentration not given		inhibition	0.7%
COC(=O)[C@@H](NC(=O)c1nn(Cc2ccc(F)cc2)c2ccccc12)C(C)(C)C	Cannabinoid receptor 1, with Goa (CNR1, Homo sapiens, UniProt P21554)	GTP turnover, agonist, refers to: Goa Gα subtype				maximal efficacy	122%
CCCc1cc(O)c2c(c1)OC(C)(C)[C@@H]1CCC(C)=C[C@@H]21	TRPV3 (Homo sapiens, UniProt Q8NET8, S444L)	calcium uptake, agonist	HEK293S	mutant S444L, site 2		Hill coefficient	1.8 ± 0.39
CN[C@]1(c2ccccc2Cl)CCCCC1=O	AMPA receptor	radioligand binding, agonist, radioligand displacement		30 µM		inhibition	1%
C[C@]12N[C@H](Cc3ccccc31)c1ccccc12	NMDA receptor GluN1/GluN2A lacking NTD	ion current, inhibitor, oocyte voltage clamp		50 nM		onset time constant	6.8 ± 0.6 s
c1ccc2cc([C@]34CNC[C@H]3C4)ccc2c1	SLC6A3 (Homo sapiens, UniProt Q01959, V152A)	inhibitor, [3H]dopamine uptake		10 nM, V152A mutant	relative to: no inhibitor	dopamine uptake	81.4% and 86.7% and 72.4%
Clc1cccc(N2CCNCC2)c1Cl	CHRM2 (Homo sapiens, UniProt P08172)	ERK1/2 phosphorylation, agonist	CHO cells			Emax	< 10%
COc1cc(CCNC(C)c2ccccc2O)c(OC)cc1C#N (single isomer, unassigned; (-))	HTR2C (Homo sapiens, UniProt P28335)	calcium flux, agonist			relative to: calcium flux over Gq dissociation (BRET)	fold potency decrease	4 fold
CN1CC[C@]2(C)c3cc(OC(=O)Nc4ccccc4)ccc3N(C)[C@H]12	human nicotinic α3β4 receptor	radioligand binding		10 µM, together with: [3H]epibatidine		inhibition	0.9%
CC(C)OC(=O)[C@H](C)N[P@](=O)(OC[C@H]1O[C@@H](n2ccc(=O)[nH]c2=O)[C@](C)(F)[C@@H]1O)Oc1ccccc1	Genome polyprotein, NS5 (GP1, West Nile virus, UniProt Q9Q6P4)	binding				association rate constant	144 M⁻¹ s⁻¹
Brc1ccc2c(c1)C(c1ccccn1)=NCc1c(-c3cnco3)ncn1-2	translocator protein (PBR), rat	radioligand binding		together with: [3H]PK11195	relative to: PBR over benzodiazepine site	selectivity ratio	2.2 fold
COc1ccc(OS(=O)(=O)NC(=O)CCCCc2ccccc2)cc1	Glycerol-3-phosphate acyltransferase (plsY, Streptococcus pneumoniae, UniProt P0A4Q0)	inhibitor		200 µM		inhibition	12%
Oc1ccc2c3c1O[C@H]1[C@@H](O)CC[C@@]4(O)[C@@H](C2)N(CC2CCC2)CC[C@]314	G-protein coupled receptor 26 (GPR26, Homo sapiens, UniProt Q8NDV2)	β-arrestin recruitment, TANGO luminescence, refers to: GPR26		concentration not given	relative to: basal luminescence	log2 fold change	0.006

Repeated from above:
SMILES	target	assay	test system	conditions	scale	endpoint	value
C=CCN1CC[C@]23c4c5ccc(O)c4O[C@H]2C(=O)CC[C@]3(O)[C@H]1C5	Gamma-aminobutyric acid receptor subunit alpha-1/gamma-2 (Homo sapiens, UniProt P14867+P18507)			concentration not given		inhibition	0.7%
COC(=O)[C@@H](NC(=O)c1nn(Cc2ccc(F)cc2)c2ccccc12)C(C)(C)C	Cannabinoid receptor 1, with Goa (CNR1, Homo sapiens, UniProt P21554)	GTP turnover, agonist, refers to: Goa Gα subtype				maximal efficacy	122%
